Published values collected from several papers.
Protocols differ between the studies behind these lines. ± gives the spread as reported. Values after ≈ are worked out from the molar mass of the structure shown.

Substance	tested on	assay	system	setting	scale	measurement	value
Fc1ccc(-c2cc3ccccc3[nH]2)cc1	HEK293 NF-κB luciferase reporter	reporter gene, measured: NF-κB		50 µM, 6 h, together with: TNFα		inhibition	77.9 ± 1.4%
C[C@H]1C[C@H]2CSC(N)=N[C@@]2(c2nc(NC(=O)c3ccc(OC(F)F)cn3)cs2)CO1		measured: CSF Aβx-42	healthy adults	275 mg once daily, 14 days, day 15	relative to: placebo-adjusted baseline	change from baseline	-85%
Cc1noc(/C=C/c2ccccn2)c1[N+](=O)[O-]	Schistosoma mansoni	motility, automated imaging	adult female worms	48 h		EC50	~6 µM
C(=NOCc1ccccc1)c1c(-c2ccccc2)[nH]c2ccccc12	HEK293	cell growth or viability		50 µM		viability	66.1%
CC1(C)S[C@@H]2[C@H](NC(=O)[C@H](N)c3ccc(O)cc3)C(=O)N2[C@H]1C(=O)O	coagulase-negative Staphylococcus		community-acquired pneumonia patients	Fine score 70 or more		sensitive strains	50%
Cc1ccc(NC(=O)c2ccc(CN3CCN(C)CC3)cc2)cc1Nc1nccc(-c2cncc(-c3oncc3C)c2)n1			mild-to-moderate Parkinson's disease patients	oral, 100 mg once daily, pre-dose baseline, on anti-Parkinson medication	direction not given	PGI-S score	2 ± 0.7
Brc1ccc(NCc2ccc(Oc3ccccn3)cc2)cc1	Mycobacterium tuberculosis		H37Rv, GAST-Fe medium	1 weeks, pH 6.6		MIC	35 µM (≈ 12.4 µg/mL)
SIIVFEKL		flow cytometry, measured: CD44hi CD8+ T cells	peptide, OT-I CD8+ T cells, mouse	dose not given, primed 5 days, restimulated 100 ng/mL OVA257, together with: no TGF-β1		cytokine-negative cells	19.3%
N#Cc1c(-c2ccccc2)[nH]c2ccccc12	HEK293	cell growth or viability		50 µM		viability	91.4%
CC[C@H](C)[C@H](NC(=O)[C@H](CCC(N)=O)NC(=O)[C@H](Cc1c[nH]cn1)NC(=O)[C@H](C)NC(=O)[C@H](CC(C)C)NC(=O)[C@H](CCCCN)NC(=O)[C@H](CCC(N)=O)NC(=O)[C@@H](NC(=O)[C@@H](NC(=O)[C@@H]1CSSC[C@H](NC(=O)CNC(=O)[C@H](Cc2ccccc2)NC(=O)[C@H](CO)NC(=O)[C@H](CCCNC(=N)N)NC(=O)[C@H](CC(C)C)NC(=O)CNC(=O)[C@H](CCC(N)=O)NC(=O)[C@H](Cc2ccccc2)NC(=O)[C@H](CC(N)=O)NC(=O)[C@H](CC(N)=O)NC(=O)[C@H](CCSC)NC(=O)[C@H](CO)NC(=O)[C@H](CCC(N)=O)NC(=O)[C@H](CCCNC(=N)N)NC(=O)[C@@H](N)Cc2ccc(O)cc2)C(=O)N[C@@H](CCCNC(=N)N)C(=O)N[C@@H](Cc2ccccc2)C(=O)NCC(=O)N[C@@H]([C@@H](C)O)C(=O)N1)[C@@H](C)O)C(C)C)C(=O)N[C@@H](Cc1ccc(O)cc1)C(=O)N[C@@H](CCC(N)=O)C(=O)N[C@@H](Cc1ccccc1)C(=O)N[C@H](C(=O)N[C@@H](CC(=O)O)C(=O)N[C@@H](CCCCN)C(=O)N[C@@H](CC(=O)O)C(=O)N[C@@H](CCCCN)C(=O)N[C@@H](CC(=O)O)C(=O)N[C@@H](CC(N)=O)C(=O)N[C@H](C(=O)N[C@@H](C)C(=O)N1CCC[C@H]1C(=O)N[C@@H](CCCNC(=N)N)C(=O)N[C@@H](CO)C(=O)N[C@@H](CCCCN)C(=O)N[C@H](C(=O)N[C@@H](CO)C(=O)N1CCC[C@H]1C(=O)N[C@@H](CCC(N)=O)C(=O)NCC(=O)N[C@@H](Cc1ccc(O)cc1)C(N)=O)[C@@H](C)CC)C(C)C)[C@@H](C)O			patients, biologic-resistant Crohn's disease	intravenous infusion, 10 ng/kg/min, 24 weeks, unit not given, together with: biologic	relative to: baseline	change in CDAI	-82 ± 56
c1ccc(Cn2c(-c3ccccc3)cc3ccccc32)cc1	HEK293 NF-κB luciferase reporter	reporter gene, measured: NF-κB		50 µM, 6 h, together with: TNFα		inhibition	0%
CC[C@H]1OC(=O)[C@H](C)[C@@H](O[C@H]2C[C@@](C)(OC)[C@@H](O)[C@H](C)O2)[C@H](C)[C@@H](O[C@@H]2O[C@H](C)C[C@H](N(C)C)[C@H]2O)[C@](C)(O)C[C@@H](C)CN(C)[C@H](C)[C@@H](O)[C@]1(C)O	coagulase-negative Staphylococcus		community-acquired pneumonia patients	Fine score below 70		sensitive strains	66.7%
Clc1ccc2cc(-c3ccccc3)[nH]c2c1	HEK293	cell growth or viability		50 µM		viability	89.4%
CC[C@H]1OC(=O)[C@H](C)[C@@H](O[C@H]2C[C@@](C)(OC)[C@@H](O)[C@H](C)O2)[C@H](C)[C@@H](O[C@@H]2O[C@H](C)C[C@H](N(C)C)[C@H]2O)[C@](C)(O)C[C@@H](C)C(=O)[C@H](C)[C@@H](O)[C@]1(C)O	coagulase-negative Staphylococcus		community-acquired pneumonia patients	Fine score 70 or more		sensitive strains	75%
CCOC(=O)c1nc2ccccc2c(=O)n1Cc1cn(-c2ccc(C(=O)O)cc2)nn1	Candida tropicalis	microbial growth, broth dilution	ATCC750	24 h		IC50	290 µg/mL (≈ 692 µM)

For quick reference, copied from above:
Substance	tested on	assay	system	setting	scale	measurement	value
Cc1noc(/C=C/c2ccccn2)c1[N+](=O)[O-]	Schistosoma mansoni	motility, automated imaging	adult female worms	48 h		EC50	~6 µM
C(=NOCc1ccccc1)c1c(-c2ccccc2)[nH]c2ccccc12	HEK293	cell growth or viability		50 µM		viability	66.1%
